Measurements pooled from the literature.
Every numbered part comes from another study and shows a few of its results, in no order. Substitutions count along the parent as printed.

Sample 1 — method: RNA Bind-n-Seq; form: RNA; medium: in vitro; tested at: 200 nM; setting: whole 134-nt RNA, ends assumed; together with: 150 mM LiCl; baseline: input library; reading: higher = stronger binding; each molecule: 7-deaza-guanosine replaces G
Target: Ras GTPase-activating protein-binding protein 1, full length (G3BP1, Homo sapiens, UniProt Q13283)
Chain of UniProt Q13283 (whole entry, looked up): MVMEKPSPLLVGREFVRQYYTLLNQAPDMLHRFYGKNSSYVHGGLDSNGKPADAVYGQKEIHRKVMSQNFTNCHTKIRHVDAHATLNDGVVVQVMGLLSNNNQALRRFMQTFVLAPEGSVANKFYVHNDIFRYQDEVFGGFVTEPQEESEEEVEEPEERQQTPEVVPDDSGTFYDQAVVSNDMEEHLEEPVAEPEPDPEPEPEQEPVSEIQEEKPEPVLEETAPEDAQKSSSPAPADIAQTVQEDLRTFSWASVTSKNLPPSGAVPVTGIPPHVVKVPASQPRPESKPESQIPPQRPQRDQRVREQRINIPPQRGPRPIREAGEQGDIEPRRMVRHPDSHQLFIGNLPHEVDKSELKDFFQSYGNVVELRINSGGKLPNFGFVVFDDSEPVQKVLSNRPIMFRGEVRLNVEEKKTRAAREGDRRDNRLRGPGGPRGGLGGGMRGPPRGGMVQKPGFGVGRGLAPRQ
Constant ends, left off below: GGGAGUUCUACAGUCCGACGAUC … UGGAAUUCUCGGGUGUCAAGG
`GUCCUGUGCUACACAUCGUAUGUACCGAAUCGGGGUUUUUUUGGGGAAAGGGGAGGGGAAAGUAUUAUGUUACGCCGUUCGGAUCUGCAC` has a log2 enrichment of 0.0139.
For `UUACUUUAGAGGAGGAUCUGAUGGAUAUGGCAGUGGACGUGGAUUUGGGGAUGGCUAUAAUGGGUAUGGAGGAGGACCUGGAGGUGGCAA`, the log2 enrichment was 0.0986.
`ACCAUGCAAAAGGGCAUCUUUGGGAAGUGGGGCAAGGGGGGGAUAGGGAGGGGGGUAACACUUUGGGAACAGGUGGUCCCAGGUCGUUUC` has a log2 enrichment of 0.284.
With `UAACUUUAGAGGAGGAUCUGAUGGAUAUGGCAGUGGACGUGGAUUUGGGGAUGGCUAUAAUGGGUAUGGAGGGGGACCUGGAGGUGGCAA` the log2 enrichment was 0.0359.
For `GCGGACCGAGAAAGUCGUUACGAGGAAGAAGAAGAACAAAGUCGAAGUAUGAGCCGGAAGAGGAAGGCAUCUGUGCACAGUUCGGGCCGU`, the log2 enrichment was 0.388.
The log2 enrichment of `UGGGAGGUGGAUUUUGUUUAUUUUUUUAGCUCAUUUCCAGGGGUGGGAAUUUUUUUUUAAUCUGUGUCAUGAAUAAAGUUGUUUUUGAAA` is reported as -0.267.
With `UGAAUGCUGAGAAUGUUGCUGGUCACCAGAUUGCCUCUGAAACACAGAUCCUUGAGGGCUCUUUGGGAAUAUCUGUAAAGUCACACUGCA` the log2 enrichment was -0.539.
`CCUGUGCUACACAUCGUAUGUACCGAAUCGGGGUUUUUUUGGGGUUUGGGGAAAAAGGGGAAAGUAUUAUGUUACGCCGUUCGGAUCUGC` gave a log2 enrichment of 0.134.

Sample 2 — target: CCNB3, cyclin fold, Cln2 fusion (human); method: yeast growth competition, sequencing; medium: yeast; setting: weak parent motif; baseline: not given; reading: higher = stronger binding
Starting sequence: GMNC docking peptide (human); KNAKRNLSSEFAN
`F11H` — result for “normalised enrichment score”: -0.0716.
Under “normalised enrichment score”, `N2A` is recorded as 0.339.
For `E10R`, “normalised enrichment score” read 0.606.
`E10A` — result for “normalised enrichment score”: 0.0393.
Under “normalised enrichment score”, `N6H` is recorded as -0.00605.
For `S9N`, “normalised enrichment score” read 0.357.
`L7D` — result for “normalised enrichment score”: 0.154.
For `N2H`, “normalised enrichment score” read 0.251.
`R5D`: “normalised enrichment score” -0.062.
Under “normalised enrichment score”, `N2T` is recorded as 0.495.
Under “normalised enrichment score”, `A3L` is recorded as 0.162.
Under “normalised enrichment score”, `A12C` is recorded as 0.122.
Under “normalised enrichment score”, `K4L` is recorded as 0.205.
For `N6R`, “normalised enrichment score” read 0.0447.
`K4F` — result for “normalised enrichment score”: 0.171.
`R5V`: “normalised enrichment score” -0.307.
For `F11T`, “normalised enrichment score” read 0.309.
`S8K`: “normalised enrichment score” 0.416.
For `N2L`, “normalised enrichment score” read 0.664.
For `S8M`, “normalised enrichment score” read 1.08.
For `A3Q`, “normalised enrichment score” read 0.509.
`N6Q`: “normalised enrichment score” 0.309.

Sample 3 — method: protein binding microarray; form: double-stranded DNA, one strand shown; medium: in vitro; tested at: not given; baseline: not given; reading: higher = stronger binding
Target: Histone acetyltransferase KAT6A, both winged helices, GST fusion (KAT6A, Homo sapiens, UniProt Q92794, residues 1-181)
Setting: 8-mer, flanks averaged, mean of 2 arrays, mostly near background
Construct (chain): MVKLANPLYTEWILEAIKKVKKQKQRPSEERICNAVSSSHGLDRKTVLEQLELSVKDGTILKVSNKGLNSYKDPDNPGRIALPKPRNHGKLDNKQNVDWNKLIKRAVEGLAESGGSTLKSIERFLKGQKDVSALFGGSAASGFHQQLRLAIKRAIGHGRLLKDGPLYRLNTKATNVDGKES
For `CGCTCGAG`, the E-score was 0.156.
The E-score of `AACCCAAA` is reported as -0.14.
`CTTCGACC` gave an E-score of -0.103.
With `ATCGACCC` the E-score was -0.059.
With `AGGTCCAG` the E-score was -0.121.
`AAGTTTAT` has an E-score of -0.0107.
`AAAGTCAG` has an E-score of -0.011.
The E-score of `CCGTGTAA` is reported as 0.127.
With `ACTATTAA` the E-score was -0.134.
`GCATGCAA` has an E-score of 0.0219.
`ACAAGCCG` has an E-score of 0.193.
For `ACGCTGGC`, the E-score was 0.0401.
With `GGTCTAAA` the E-score was -0.0877.
For `ACTTTACT`, the E-score was -0.164.
`ATCTCGAA` has an E-score of 0.0477.
For `CATGCAAG`, the E-score was -0.0997.
With `CAGGCCCC` the E-score was -0.138.
With `ACGCGGCG` the E-score was 0.353.
For `GATGCGCA`, the E-score was 0.251.

Sample 4 — method: RNA Bind-n-Seq; form: RNA; medium: in vitro; tested at: not given; baseline: input RNA pool; reading: higher = stronger binding
Target: RING finger protein unkempt homolog, zinc fingers 1-6, GST-SBP tag (UNK, Homo sapiens, UniProt Q9C0B0, residues 30-357)
Chain of UniProt Q9C0B0 (30-357, looked up): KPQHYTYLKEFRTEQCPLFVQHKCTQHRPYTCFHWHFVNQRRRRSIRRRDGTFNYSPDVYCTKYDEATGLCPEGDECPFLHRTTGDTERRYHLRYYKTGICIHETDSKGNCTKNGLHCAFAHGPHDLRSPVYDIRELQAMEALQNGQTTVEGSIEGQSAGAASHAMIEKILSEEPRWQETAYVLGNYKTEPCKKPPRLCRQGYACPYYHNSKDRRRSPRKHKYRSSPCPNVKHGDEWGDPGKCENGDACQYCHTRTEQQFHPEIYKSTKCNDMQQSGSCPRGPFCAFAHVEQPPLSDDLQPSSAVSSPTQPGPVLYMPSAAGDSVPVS
Setting: RNA with constant flanks, human and mouse sites, ends assumed
Constant ends, left off below: GGGAGUUCUACAGUCCGACGAUC … CAACAGAGGAUUGAGCAUCA
For `ACUUAAUAAAGGUUGAUUUUGCUUUAUAUUGGGAGCUGAGCCACACCUCCCCUUAUAACUCUAUUGGUCAGUAAUGGUCAGUUUGUGGCUGUUAGGAAAAUGUUGCCUUUUAGCAUUCCA`, the bound/input enrichment was 0.749 ratio.
`UCGGGUGAGGCCUGGCCUGCUGUUCUAAGUAGUCCACUGGCAUUGCCUUCCAAGCCACUUUAGGUCCUUUUGUUUUGUUUUGUUUUUGUUUUUAAAUCAGUGCUCUUACUUCCUGUACAU` has a bound/input enrichment of 5.77 ratio.
`UUGCUUGAAUGAAUGAUUUUGGUAGUAAUAUGAGCGUUAUCCUUAAAUCAAUGUUACAAUUUUUGCUAUUACUGAAAUACCGUCACAGAGGCCACAUUAUUGGCUGUCUAUACCAUUGCC` gave a bound/input enrichment of 0.285 ratio.
The bound/input enrichment of `CUGAACAUUUUGAAGCUUGCUCCUGGUGGGCAUGUGGGACGUUUCUGCAUUUGGACUGAAAGUGCUUUCCGGAAGUUAGAUGAAUUGUACGGCACUUGGCGUAAAGCCGCUUCCCUCAAG` is reported as 1.01 ratio.
For `AGCUGUGAGGGAUACGGAAGUUUGAUCAAUAUUGUCUUAACAUGCUUCAGAUAAAUCAGAUGUUUUCGGUGCAGCUGAGUCUUGGCGAGCAGACAUGGGAAUCCGAAGGGAGCAGUAUAA`, the bound/input enrichment was 0.368 ratio.
With `GACAAUGGACCAUCUUCCUAGAACUCCCAACUAAAUACUUCAGGACACAUCUUCUGGAAUGUAUUUUACUUUUGAGGUGGAGGGAGAAAUUGUCUUAUUGAUUCCUAAAUUCUUUGCAGG` the bound/input enrichment was 0.185 ratio.
`CUACAAGGAGGUGAAGGACAAGCUCCUACAAGGCAGGCAGUAUUGGGUGCAGGCUUACCUAUUUCUACUCCAUGUACCACCAUAAACAAAGUUUGUGCUUCAGGAAUGAAAGCCAUCAUG` has a bound/input enrichment of 0.162 ratio.
`AAUCAGUAGAAUUACAUAAUACUAAAGUUGCAGUUGAAAGAAUAUCCAAGUAUGUGUUGGUAGUUACUAAAAGAAUUAUAGCUGUUAUUGCCUUGUAUUUAUAGCCCUUGUUUCAGGUUU` has a bound/input enrichment of 5.16 ratio.

Repeated from above (sample 1):
`ACCAUGCAAAAGGGCAUCUUUGGGAAGUGGGGCAAGGGGGGGAUAGGGAGGGGGGUAACACUUUGGGAACAGGUGGUCCCAGGUCGUUUC` has a log2 enrichment of 0.284.
The log2 enrichment of `UGGGAGGUGGAUUUUGUUUAUUUUUUUAGCUCAUUUCCAGGGGUGGGAAUUUUUUUUUAAUCUGUGUCAUGAAUAAAGUUGUUUUUGAAA` is reported as -0.267.
`GUCCUGUGCUACACAUCGUAUGUACCGAAUCGGGGUUUUUUUGGGGAAAGGGGAGGGGAAAGUAUUAUGUUACGCCGUUCGGAUCUGCAC` has a log2 enrichment of 0.0139.
For `GCGGACCGAGAAAGUCGUUACGAGGAAGAAGAAGAACAAAGUCGAAGUAUGAGCCGGAAGAGGAAGGCAUCUGUGCACAGUUCGGGCCGU`, the log2 enrichment was 0.388.
For `UUACUUUAGAGGAGGAUCUGAUGGAUAUGGCAGUGGACGUGGAUUUGGGGAUGGCUAUAAUGGGUAUGGAGGAGGACCUGGAGGUGGCAA`, the log2 enrichment was 0.0986.
With `UGAAUGCUGAGAAUGUUGCUGGUCACCAGAUUGCCUCUGAAACACAGAUCCUUGAGGGCUCUUUGGGAAUAUCUGUAAAGUCACACUGCA` the log2 enrichment was -0.539.
